# Results collected from several papers.
# Values joined by “and” are separate records of one study, mostly repeats; a detail may differ. ± gives the spread as reported.
Structure (SMILES),target or system,test,system,setting,scale,quantity,value
O=C(O)CNC(=O)c1cccc(O)c1,,,human plasma,mean,,plasma concentration,9190 nM
COc1cccc(-c2ccc(NC(=O)C3=C(C(=O)O)CCC3)c(F)c2)c1,COS-7,WST-8,,"3 µM, 24 h, 0.1% DMSO, unit not given",baseline: vehicle control,metabolic activity,0.93 ± 0.06
NC[C@H]1O[C@H](O[C@H]2[C@H](O)[C@@H](O[C@H]3O[C@H](CO)[C@@H](O)[C@H](N)[C@H]3O)[C@H](N)C[C@@H]2N)[C@H](N)C[C@@H]1O,,starch gel membrane permeability,Gram-negative envelope surrogate,"200 µM, 30 min, pH 7.4",,amount permeated,0.61 nmol
CCN1CCN(c2cc(N3CCN(CC)CC3)nc(NCCNc3ccnc4cc(Cl)ccc34)n2)CC1,COS-7,,,"20 µM, 24 h, 0.1% DMSO, unit not given",baseline: vehicle control,apoptotic cells,5.22 ± 0.95
C[C@@H](Oc1cc(-c2cnn(C3CCNCC3)c2)cnc1N)c1c(Cl)ccc(F)c1Cl,,,"human patients, plasma","oral, dose not given, cycle 2 day 1, median, added: avelumab",,"AUCtau, dose-normalized",13 ng·h/mL/mg
COc1cccc(OC)c1-c1cc(C(=O)NC2(C(=O)O)C3CC4CC(C3)CC2C4)nn1-c1ccc(C(=O)N(C)CCCN(C)CCCN(C)C(=O)CN2CCN(CC(=O)[O-])CCN(CC(=O)[O-])CCN(CC(=O)[O-])CC2)cc1C(C)C.[177Lu+3] (centres unmarked),,,"mouse, HT-29 xenograft, kidney",168 h post injection,,tissue uptake,0.2 ± 0.04 %ID/g
CCn1cc(C(=O)O)c(=O)c2cnc(N3CCNCC3)nc21,,starch gel membrane permeability,Gram-negative envelope surrogate,"200 µM, 60 min, pH 7.4",,amount permeated,3.68 nmol
O=C(O)CCc1ccc(O)cc1O,,,human plasma,mean,,plasma concentration,1520 nM
COc1cc2c(c(O)c1OC)C(=O)c1c(cc(C)c(O[C@@H]3O[C@H](CO)[C@@H](O)[C@H](O)[C@H]3O)c1OC)C2=O,HepaRG co-cultured with HK-2,MTT,,"33.33 µM, 24 h",baseline: untreated control,cell viability,93.4 ± 22.4%
CCn1ncc2c1-c1cnc(N)c(c1)O[C@H](C)c1cc(F)ccc1-c1nn(C)nc1C2,,,"female athymic nude mice, sample B PDX","oral, 0.2 mg/kg once daily for 1 days, 12 h",,unbound plasma trough concentration,2.5 ± 0.3 nM
O=C1NC(=O)C(c2ccccc2)(c2ccccc2)N1,,,"Sprague-Dawley rat, serum","po, 40 mg/kg, 6 h",,AST/ALT ratio,1.52 and 2.22
CCO[C@H]1CCN(Cc2c(OC)cc(C)c3[nH]ccc23)[C@H](c2ccc(C(=O)O)cc2)C1,,,"human severe hepatic impairment, plasma","oral, 200 mg single dose, geometric mean",,total half-life,26.5 h
COc1cc2c3c(n(CCCN4CCOCC4)c(=O)c2cc1OC)-c1cc2c(cc1C3=O)OCO2,,,"Fischer 344 rats, female","intravenous bolus, 24 mg/m^2",,clearance,29.3 L/h/m²
CO[C@H]1/C=C/O[C@@]2(C)Oc3c(C)c(O)c4c(c3C2=O)C2=NC3(CCN(CC(C)C)CC3)NC2=C(NC(=O)/C(C)=C\C=C\[C@H](C)[C@H](O)[C@@H](C)[C@@H](O)[C@@H](C)[C@H](OC(C)=O)[C@@H]1C)C4=O,,,"CD-1 mouse female, plasma","intravenous, 5 mg/kg",,elimination rate constant,4.44e-05 s⁻¹
COc1ncc(-c2nc3c(n2C(C)C)[C@H](c2ccc(Cl)cc2)N(c2cc(Cl)cn(C)c2=O)C3=O)c(OC)n1,,,"human patients, plasma","oral, 12.5 mg, high-dose arm, cycle 2 day 1",,median half-life,8.7 h
COc1ccc([C@@H](O)c2cc(-c3ncnc4cc(N5CCOCC5)ccc34)c(F)cc2Cl)nn1,,,"healthy volunteers, plasma","oral, 100 mg, oral suspension, fasted, median",,tlag,0 h
N#CCNC(=O)c1ccc(-c2ccnc(Nc3ccc(N4CCOCC4)cc3)n2)cc1,,,"healthy volunteers, plasma","dose not given, added: rifampin single-dose",baseline: compound alone,median half-life change,no effect
CNC(=O)c1ccc(-c2cnc3ncc(Cc4ccc5ncccc5c4)n3n2)cc1F,,,Japanese patients,"oral, 400 mg, any grade",,Malaise dose reduction/interruption,1%
C[C@H]1Oc2cc(cnc2N)-c2c(nn(C)c2C#N)CN(C)C(=O)c2ccc(F)cc21,,population PK,"moderate renal impairment patients, plasma","oral, 100 mg, single dose",,CL,120 mL/min
O=C(O)CNC(=O)c1ccccc1O,,,human plasma,mean,,plasma concentration,995 nM
N#Cc1ccc2c(c1)[C@H]1CCCN(C(=O)c3ccc4[nH]cnc4c3)[C@H]1C2,,,human,"40 mg, end of trial",,minimum ACTH level,2 pmol/L
CCc1cc(C(=O)NC)c2nccc(N3CCc4c(cc(Cn5ccnc5)cc4-c4cn(C)nc4C(F)(F)F)C3=O)c2c1,,,"Sprague Dawley rat, male, plasma","oral, 50 mg/kg once daily, 7 days, toxicokinetic satellite group",,AUC(0-last),14400 ng·h/mL
Cl.[2H]C([2H])([2H])CC(=O)c1cnc(NC(=O)C2CC2)cc1Nc1cccc(-c2ncn(C([2H])([2H])[2H])n2)c1OC,,,"human, fed, multiple dose","oral, 30 mg twice daily, tablet, day 14, geometric mean",,AUC(0-tau),1880 ng·h/mL
